Assay results collected from several papers.
Parts stem from different laboratories: compare values within a part only.
Chain of UniProt P06239 (whole entry, looked up): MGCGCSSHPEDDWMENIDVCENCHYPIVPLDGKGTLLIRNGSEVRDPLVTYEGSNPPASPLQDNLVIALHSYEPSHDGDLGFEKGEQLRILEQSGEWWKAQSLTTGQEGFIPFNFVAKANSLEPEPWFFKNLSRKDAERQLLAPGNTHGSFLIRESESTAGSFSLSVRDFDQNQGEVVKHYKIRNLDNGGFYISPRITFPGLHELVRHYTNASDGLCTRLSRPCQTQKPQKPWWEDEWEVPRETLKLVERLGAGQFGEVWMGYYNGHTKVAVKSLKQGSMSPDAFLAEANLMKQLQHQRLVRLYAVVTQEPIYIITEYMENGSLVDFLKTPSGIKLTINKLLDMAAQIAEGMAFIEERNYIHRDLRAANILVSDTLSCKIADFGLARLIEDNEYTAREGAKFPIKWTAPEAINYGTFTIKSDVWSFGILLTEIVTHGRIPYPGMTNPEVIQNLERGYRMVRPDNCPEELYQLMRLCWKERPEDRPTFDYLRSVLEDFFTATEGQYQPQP
Chain of UniProt Q8IYT8 (whole entry, looked up): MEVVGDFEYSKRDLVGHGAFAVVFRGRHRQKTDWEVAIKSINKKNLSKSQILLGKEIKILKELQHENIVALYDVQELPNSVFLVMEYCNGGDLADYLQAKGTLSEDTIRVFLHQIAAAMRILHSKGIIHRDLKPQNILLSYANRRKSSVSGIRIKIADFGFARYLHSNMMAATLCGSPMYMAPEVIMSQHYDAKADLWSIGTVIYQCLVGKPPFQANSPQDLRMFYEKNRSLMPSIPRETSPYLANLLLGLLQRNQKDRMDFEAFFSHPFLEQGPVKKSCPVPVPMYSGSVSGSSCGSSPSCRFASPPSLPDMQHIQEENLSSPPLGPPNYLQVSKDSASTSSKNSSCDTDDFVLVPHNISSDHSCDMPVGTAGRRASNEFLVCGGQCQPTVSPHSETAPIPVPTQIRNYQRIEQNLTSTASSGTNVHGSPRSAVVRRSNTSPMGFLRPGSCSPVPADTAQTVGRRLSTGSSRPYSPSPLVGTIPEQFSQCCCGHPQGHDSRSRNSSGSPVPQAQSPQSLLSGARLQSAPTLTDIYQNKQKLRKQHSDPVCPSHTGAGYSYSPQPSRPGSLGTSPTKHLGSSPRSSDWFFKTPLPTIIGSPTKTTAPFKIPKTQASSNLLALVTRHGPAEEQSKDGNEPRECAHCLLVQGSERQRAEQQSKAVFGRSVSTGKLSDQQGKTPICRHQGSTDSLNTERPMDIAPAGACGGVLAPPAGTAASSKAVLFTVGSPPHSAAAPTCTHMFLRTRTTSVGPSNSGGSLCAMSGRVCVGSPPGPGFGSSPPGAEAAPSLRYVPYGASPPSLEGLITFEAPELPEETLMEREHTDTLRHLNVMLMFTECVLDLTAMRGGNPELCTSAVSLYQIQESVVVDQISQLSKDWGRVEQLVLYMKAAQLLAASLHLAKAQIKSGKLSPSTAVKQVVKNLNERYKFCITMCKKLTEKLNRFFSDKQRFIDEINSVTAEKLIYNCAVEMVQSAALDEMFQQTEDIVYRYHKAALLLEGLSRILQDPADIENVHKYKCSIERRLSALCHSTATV
Chain of UniProt Q99558 (whole entry, looked up): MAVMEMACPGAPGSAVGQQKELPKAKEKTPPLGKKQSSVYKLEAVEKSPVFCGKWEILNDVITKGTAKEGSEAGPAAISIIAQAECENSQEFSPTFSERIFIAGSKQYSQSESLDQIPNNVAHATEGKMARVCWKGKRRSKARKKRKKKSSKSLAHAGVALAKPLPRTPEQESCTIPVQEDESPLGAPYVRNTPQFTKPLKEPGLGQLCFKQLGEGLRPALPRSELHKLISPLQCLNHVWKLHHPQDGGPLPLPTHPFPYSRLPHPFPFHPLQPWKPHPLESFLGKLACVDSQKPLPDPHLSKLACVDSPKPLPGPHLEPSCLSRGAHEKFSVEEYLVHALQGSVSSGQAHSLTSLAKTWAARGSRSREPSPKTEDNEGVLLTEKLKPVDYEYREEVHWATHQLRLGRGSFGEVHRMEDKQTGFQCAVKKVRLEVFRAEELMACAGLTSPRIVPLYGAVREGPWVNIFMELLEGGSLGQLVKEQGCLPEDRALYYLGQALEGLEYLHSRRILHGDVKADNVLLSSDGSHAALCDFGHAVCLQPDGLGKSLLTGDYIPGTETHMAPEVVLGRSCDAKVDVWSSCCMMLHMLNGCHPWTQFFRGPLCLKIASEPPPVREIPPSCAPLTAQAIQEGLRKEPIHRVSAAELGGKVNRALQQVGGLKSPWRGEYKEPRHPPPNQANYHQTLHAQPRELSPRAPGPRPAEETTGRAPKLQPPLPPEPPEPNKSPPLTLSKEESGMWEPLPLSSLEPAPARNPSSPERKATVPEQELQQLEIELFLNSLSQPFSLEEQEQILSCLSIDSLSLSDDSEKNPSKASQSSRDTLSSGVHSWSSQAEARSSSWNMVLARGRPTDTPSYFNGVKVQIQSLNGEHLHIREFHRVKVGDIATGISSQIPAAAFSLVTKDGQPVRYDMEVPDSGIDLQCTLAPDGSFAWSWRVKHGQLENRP
Chain of UniProt Q02763 (whole entry, looked up): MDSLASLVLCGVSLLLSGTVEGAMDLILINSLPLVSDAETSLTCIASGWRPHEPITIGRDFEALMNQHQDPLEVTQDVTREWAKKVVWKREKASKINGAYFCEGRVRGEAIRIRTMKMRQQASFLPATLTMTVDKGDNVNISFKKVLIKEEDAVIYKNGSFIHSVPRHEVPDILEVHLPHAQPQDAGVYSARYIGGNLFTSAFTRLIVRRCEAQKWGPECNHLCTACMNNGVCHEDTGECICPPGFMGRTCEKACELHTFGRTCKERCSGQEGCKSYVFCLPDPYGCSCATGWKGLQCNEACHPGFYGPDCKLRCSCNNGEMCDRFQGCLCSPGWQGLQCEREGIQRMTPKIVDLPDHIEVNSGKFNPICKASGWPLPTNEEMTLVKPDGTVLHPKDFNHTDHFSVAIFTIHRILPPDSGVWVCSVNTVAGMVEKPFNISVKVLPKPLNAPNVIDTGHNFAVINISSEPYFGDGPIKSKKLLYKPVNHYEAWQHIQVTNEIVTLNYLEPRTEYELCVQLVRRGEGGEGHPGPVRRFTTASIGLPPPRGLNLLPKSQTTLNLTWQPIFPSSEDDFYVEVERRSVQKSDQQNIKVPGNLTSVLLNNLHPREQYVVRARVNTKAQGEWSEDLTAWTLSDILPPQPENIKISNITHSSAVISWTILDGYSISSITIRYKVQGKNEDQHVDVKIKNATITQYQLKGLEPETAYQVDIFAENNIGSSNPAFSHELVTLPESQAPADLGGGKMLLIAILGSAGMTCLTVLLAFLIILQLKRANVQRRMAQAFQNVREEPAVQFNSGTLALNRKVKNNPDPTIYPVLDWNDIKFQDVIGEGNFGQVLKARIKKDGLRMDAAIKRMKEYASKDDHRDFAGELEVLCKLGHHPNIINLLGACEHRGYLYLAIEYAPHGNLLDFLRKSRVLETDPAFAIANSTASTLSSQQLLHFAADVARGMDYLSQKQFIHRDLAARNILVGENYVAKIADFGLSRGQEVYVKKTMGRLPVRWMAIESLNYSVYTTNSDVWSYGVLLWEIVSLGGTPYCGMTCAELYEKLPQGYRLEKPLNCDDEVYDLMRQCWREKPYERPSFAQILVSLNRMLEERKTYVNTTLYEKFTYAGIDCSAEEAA
Chain of UniProt Q8WTQ7 (whole entry, looked up): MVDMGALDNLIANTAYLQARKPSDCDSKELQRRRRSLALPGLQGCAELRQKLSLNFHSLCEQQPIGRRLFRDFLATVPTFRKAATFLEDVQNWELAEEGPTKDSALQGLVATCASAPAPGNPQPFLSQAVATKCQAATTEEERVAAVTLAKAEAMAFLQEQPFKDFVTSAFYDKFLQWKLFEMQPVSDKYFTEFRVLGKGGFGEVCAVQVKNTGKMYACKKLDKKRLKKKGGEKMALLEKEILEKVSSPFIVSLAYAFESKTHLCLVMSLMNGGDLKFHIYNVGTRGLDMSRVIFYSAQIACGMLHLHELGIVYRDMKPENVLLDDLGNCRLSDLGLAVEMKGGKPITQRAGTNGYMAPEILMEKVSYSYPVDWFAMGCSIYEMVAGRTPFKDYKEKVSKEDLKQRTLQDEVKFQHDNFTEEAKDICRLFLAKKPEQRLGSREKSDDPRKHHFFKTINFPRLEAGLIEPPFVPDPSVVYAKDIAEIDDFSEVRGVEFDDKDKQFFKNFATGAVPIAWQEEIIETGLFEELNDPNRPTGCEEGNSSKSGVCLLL
Chain of UniProt P78368 (whole entry, looked up): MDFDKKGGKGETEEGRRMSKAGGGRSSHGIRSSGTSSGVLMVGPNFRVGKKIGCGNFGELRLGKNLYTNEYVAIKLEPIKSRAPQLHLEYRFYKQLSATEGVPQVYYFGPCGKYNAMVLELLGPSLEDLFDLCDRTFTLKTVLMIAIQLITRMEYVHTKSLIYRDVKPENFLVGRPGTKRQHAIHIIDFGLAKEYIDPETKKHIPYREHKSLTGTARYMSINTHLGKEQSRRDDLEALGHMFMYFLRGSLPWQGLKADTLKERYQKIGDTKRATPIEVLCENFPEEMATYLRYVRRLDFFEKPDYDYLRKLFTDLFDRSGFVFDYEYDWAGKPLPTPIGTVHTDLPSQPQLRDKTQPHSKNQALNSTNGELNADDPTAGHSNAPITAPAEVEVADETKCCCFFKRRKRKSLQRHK

Series 1
Cell line: A-375
Concentration: 100 µM
Time: 18 h
Endpoint: viability
Structure (SMILES) = CCCCC(=O)N(Cc1ccc(-c2ccccc2-c2nnn[nH]2)cc1)[C@H](C(=O)O)C(C)C; value = 105%
Structure (SMILES) = N[C@@H](C(=O)N[C@@H]1C(=O)N2C(C(=O)O)=C(Cl)CS[C@H]12)c1ccccc1; value = 102%
Structure (SMILES) = Cc1ncc([N+](=O)[O-])n1CC(C)O (stereo not drawn); value = 85.5%
Structure (SMILES) = CC1=C(/C=C/C(C)=C/C=C/C(C)=C/C=C/C=C(C)/C=C/C=C(C)/C=C/C2=C(C)CCCC2(C)C)C(C)(C)CCC1; value = 65.1%
Structure (SMILES) = CC(=O)N1CCN(c2ccc(OC[C@@H]3CO[C@@](Cn4ccnc4)(c4ccc(Cl)cc4Cl)O3)cc2)CC1 (racemic); value = 7.58%

Series 2
SMILES: COc1cccc(CNC(=O)c2nc3scc(COCc4ccc(C(=O)O)cc4)c3c(=O)[nH]2)c1
Observed: cell-free assay
Method: competition with immobilised ligand
Concentration: 1 µM
Endpoint: remaining binding
target = Vascular endothelial growth factor receptor 3 (FLT4, Homo sapiens, UniProt P35916); value = 100%
target = Leucine-rich repeat serine/threonine-protein kinase 2 (LRRK2, Homo sapiens, UniProt Q5S007, G2019S); value = 94.6%
target = Macrophage colony-stimulating factor 1 receptor (CSF1R, Homo sapiens, UniProt P07333); value = 100%
target = Serine/threonine-protein kinase Sgk1 (SGK1, Homo sapiens, UniProt O00141); value = 93.4%

Series 3
SMILES: O=Nc1c(-c2c(O)[nH]c3ccccc23)[nH]c2ccccc12
Observed: enzyme activity
Mode: inhibitor
Concentration: 0.5 µM
Reference: control
Endpoint: remaining activity
target = Macrophage-stimulating protein receptor (MST1R, Homo sapiens, UniProt Q04912); value = 103%
target = Tyrosine-protein kinase Mer (MERTK, Homo sapiens, UniProt Q12866); value = 82.2%
target = Casein kinase I isoform gamma-2 (CSNK1G2, Homo sapiens, UniProt P78368); value = 89.4%
target = Serine/threonine-protein kinase A-Raf (ARAF, Homo sapiens, UniProt P10398); value = 100%
target = Fibroblast growth factor receptor 3 (FGFR3, Homo sapiens, UniProt P22607); value = 70.4%
target = Angiopoietin-1 receptor (TEK, Homo sapiens, UniProt Q02763); value = 98.7%
target = Serine/threonine-protein kinase TAO2 (TAOK2, Homo sapiens, UniProt Q9UL54); value = 96.3%
target = Serine/threonine-protein kinase ULK2 (ULK2, Homo sapiens, UniProt Q8IYT8); value = 103%
target = Rhodopsin kinase GRK7 (GRK7, Homo sapiens, UniProt Q8WTQ7); value = 84.4%
target = Mitogen-activated protein kinase kinase kinase 5 (MAP3K5, Homo sapiens, UniProt Q99683); value = 84.3%
target = Serine/threonine-protein kinase TBK1 (TBK1, Homo sapiens, UniProt Q9UHD2); value = 53.6%
target = Tyrosine-protein kinase Lck (LCK, Homo sapiens, UniProt P06239); value = 77.1%
target = Mitogen-activated protein kinase kinase kinase 14 (MAP3K14, Homo sapiens, UniProt Q99558); value = 88.7%

Series 4
Target: Eukaryotic initiation factor 4A-I (EIF4A1, Homo sapiens, UniProt P60842, residues 1-406, full length assumed)
Chain of UniProt P60842 (whole entry, looked up): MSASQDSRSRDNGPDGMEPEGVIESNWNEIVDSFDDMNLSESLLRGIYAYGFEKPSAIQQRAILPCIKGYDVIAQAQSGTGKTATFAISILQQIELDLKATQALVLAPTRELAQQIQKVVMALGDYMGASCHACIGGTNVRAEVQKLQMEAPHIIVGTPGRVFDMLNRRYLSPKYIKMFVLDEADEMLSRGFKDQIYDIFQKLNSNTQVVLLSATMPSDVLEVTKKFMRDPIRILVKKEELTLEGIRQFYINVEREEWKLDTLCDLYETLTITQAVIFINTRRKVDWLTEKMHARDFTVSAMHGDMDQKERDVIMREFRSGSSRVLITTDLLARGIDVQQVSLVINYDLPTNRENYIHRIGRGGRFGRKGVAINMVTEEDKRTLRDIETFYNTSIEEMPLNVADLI
Method: RNA Bind-n-Seq
Form: RNA
Matrix: in vitro
Concentration: 90 pmol
Notes: 4-mer, random 30-nt RNA, single round
With: 3 µM iPr-DMDA-PatA, 2 mM ADP, 2 mM phosphate
Reference: input library
Direction: higher = stronger binding
Endpoint: 4-mer enrichment
Sequence = GUUG; value = 0.844 fold
Sequence = AGUC; value = 1.08 fold
Sequence = CUCG; value = 0.872 fold
Sequence = AAAU; value = 1.53 fold
Sequence = GGUU; value = 0.85 fold
Sequence = CAAC; value = 1.1 fold
Sequence = UCAU; value = 1.05 fold
Sequence = CAGU; value = 0.943 fold
